Measurements from different studies.
Each numbered part is a random draw from the data of one study; scales do not carry over between parts.
Chain of UniProt Q9H0K1 (whole entry, looked up): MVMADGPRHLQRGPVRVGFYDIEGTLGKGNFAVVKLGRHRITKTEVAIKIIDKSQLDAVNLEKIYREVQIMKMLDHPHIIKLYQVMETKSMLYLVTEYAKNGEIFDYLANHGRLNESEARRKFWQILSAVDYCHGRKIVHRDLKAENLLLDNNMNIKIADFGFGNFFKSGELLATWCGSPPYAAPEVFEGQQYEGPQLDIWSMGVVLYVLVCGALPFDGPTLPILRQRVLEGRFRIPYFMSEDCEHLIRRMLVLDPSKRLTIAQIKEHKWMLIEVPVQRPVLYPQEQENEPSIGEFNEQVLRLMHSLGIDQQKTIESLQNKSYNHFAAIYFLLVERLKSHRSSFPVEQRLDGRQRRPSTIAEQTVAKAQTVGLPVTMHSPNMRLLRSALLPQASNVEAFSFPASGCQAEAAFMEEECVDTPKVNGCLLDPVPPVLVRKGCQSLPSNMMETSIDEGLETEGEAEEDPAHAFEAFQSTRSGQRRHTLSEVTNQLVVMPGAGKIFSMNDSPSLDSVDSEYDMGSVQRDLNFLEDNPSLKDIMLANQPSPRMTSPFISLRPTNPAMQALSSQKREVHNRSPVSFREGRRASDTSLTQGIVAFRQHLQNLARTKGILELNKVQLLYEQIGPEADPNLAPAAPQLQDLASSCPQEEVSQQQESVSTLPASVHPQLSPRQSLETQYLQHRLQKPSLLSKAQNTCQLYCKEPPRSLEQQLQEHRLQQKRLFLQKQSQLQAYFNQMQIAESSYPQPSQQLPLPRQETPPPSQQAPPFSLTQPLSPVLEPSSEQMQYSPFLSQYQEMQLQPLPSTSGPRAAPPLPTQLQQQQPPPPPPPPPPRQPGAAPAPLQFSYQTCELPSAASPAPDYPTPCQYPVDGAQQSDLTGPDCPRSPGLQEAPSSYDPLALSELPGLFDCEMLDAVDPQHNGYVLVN
Chain of UniProt P54753 (whole entry, looked up): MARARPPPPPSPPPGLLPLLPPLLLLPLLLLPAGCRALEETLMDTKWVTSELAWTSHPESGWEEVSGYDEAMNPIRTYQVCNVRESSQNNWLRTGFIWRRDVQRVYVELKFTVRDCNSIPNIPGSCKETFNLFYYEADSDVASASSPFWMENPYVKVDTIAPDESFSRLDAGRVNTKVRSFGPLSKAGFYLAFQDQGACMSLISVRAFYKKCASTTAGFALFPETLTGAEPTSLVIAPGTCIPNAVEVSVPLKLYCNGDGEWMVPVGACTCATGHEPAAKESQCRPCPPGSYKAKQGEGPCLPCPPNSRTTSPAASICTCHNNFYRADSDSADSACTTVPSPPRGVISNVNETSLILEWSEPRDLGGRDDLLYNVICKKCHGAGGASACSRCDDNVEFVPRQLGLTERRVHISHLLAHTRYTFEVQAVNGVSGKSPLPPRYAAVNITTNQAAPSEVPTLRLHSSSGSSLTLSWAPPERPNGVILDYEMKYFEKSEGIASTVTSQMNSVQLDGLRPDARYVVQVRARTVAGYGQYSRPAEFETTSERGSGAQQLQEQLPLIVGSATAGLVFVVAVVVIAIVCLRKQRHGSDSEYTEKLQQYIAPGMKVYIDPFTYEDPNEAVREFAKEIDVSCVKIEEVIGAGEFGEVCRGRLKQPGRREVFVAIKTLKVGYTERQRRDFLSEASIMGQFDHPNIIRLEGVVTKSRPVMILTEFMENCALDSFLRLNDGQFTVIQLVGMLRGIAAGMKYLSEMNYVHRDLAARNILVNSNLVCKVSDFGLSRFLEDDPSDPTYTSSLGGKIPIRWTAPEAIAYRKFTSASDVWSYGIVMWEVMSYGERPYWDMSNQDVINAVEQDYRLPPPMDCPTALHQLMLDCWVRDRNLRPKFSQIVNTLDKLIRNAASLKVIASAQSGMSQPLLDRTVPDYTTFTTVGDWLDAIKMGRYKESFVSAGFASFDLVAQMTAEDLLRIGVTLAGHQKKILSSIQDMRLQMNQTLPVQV
Chain of UniProt Q04759 (whole entry, looked up): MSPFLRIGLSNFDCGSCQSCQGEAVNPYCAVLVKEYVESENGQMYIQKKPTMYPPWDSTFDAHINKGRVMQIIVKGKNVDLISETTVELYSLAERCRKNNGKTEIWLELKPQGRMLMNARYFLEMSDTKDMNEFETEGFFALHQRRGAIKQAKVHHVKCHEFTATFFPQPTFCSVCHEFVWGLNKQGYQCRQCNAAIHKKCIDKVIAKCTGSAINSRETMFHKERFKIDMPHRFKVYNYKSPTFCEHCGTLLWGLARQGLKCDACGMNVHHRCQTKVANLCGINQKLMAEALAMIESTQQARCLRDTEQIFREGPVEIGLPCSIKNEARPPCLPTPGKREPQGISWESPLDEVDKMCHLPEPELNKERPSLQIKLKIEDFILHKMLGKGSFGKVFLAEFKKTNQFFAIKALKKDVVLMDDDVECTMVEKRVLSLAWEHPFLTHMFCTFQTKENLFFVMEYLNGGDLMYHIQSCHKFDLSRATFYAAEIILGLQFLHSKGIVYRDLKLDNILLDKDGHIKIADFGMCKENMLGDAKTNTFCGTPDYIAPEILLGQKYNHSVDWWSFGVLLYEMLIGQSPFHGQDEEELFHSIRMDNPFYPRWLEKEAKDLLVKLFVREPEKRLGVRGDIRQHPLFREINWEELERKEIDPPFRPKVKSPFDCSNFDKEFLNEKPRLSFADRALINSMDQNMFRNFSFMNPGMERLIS
Chain of UniProt P51812 (whole entry, looked up): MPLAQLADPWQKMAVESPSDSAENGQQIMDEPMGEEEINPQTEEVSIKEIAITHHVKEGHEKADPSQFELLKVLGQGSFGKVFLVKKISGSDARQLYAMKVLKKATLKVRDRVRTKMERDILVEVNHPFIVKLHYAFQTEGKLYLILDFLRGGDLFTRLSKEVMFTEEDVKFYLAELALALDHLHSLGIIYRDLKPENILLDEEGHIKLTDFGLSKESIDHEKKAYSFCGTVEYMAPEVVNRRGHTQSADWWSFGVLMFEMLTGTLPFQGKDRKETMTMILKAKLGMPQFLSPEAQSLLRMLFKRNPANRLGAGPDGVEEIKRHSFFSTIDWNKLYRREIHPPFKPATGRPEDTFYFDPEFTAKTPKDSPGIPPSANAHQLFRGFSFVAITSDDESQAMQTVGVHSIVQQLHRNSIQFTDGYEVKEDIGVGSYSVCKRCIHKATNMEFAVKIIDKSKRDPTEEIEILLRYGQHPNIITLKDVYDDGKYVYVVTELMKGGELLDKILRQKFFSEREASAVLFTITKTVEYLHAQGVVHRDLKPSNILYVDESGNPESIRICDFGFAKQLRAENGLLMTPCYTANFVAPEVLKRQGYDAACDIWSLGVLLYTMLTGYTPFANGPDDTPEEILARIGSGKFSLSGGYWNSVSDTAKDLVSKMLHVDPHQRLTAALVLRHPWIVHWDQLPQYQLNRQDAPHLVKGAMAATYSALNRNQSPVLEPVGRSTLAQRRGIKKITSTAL
Chain of UniProt P37023 (whole entry, looked up): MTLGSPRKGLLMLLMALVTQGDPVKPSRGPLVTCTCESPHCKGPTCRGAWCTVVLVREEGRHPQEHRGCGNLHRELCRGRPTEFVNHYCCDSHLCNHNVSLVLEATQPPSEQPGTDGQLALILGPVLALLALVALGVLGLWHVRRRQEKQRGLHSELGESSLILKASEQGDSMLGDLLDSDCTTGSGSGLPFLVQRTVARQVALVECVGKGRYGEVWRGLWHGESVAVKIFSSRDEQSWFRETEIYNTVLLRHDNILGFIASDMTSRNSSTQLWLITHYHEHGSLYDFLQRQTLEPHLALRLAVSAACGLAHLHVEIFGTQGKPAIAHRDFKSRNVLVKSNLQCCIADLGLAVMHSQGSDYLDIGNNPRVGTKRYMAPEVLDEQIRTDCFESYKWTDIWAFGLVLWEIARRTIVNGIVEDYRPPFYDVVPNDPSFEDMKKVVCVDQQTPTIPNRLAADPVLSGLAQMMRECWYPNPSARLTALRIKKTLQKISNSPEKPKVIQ
Chain of UniProt P42680 (whole entry, looked up): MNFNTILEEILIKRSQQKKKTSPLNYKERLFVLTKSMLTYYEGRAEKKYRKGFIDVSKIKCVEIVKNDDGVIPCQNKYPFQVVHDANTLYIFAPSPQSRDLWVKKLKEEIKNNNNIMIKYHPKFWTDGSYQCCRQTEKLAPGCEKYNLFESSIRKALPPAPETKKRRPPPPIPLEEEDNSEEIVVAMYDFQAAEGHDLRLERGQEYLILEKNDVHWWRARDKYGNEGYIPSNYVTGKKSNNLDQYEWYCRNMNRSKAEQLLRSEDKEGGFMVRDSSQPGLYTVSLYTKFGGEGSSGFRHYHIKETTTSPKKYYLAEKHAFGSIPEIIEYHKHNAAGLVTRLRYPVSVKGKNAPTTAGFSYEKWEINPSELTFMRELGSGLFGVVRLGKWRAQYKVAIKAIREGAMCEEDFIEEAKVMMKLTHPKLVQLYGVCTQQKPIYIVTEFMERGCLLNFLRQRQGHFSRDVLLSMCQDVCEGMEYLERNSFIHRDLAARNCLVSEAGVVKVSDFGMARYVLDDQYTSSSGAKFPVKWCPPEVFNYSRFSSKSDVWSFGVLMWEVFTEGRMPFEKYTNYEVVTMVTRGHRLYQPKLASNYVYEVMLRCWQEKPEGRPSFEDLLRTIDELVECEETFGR
Chain of UniProt Q8TDV0 (whole entry, looked up): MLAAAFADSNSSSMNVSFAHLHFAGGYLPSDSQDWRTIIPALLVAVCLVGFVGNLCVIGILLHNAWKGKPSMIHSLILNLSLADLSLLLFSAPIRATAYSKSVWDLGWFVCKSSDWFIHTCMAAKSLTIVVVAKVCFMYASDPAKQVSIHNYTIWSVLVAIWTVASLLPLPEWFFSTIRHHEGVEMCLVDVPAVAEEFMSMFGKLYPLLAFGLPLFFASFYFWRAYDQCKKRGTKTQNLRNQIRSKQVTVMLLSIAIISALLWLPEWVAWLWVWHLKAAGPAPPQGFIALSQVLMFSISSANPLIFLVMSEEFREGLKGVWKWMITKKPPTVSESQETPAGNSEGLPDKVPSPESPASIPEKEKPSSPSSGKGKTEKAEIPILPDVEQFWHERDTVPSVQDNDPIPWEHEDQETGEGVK

Series 1 — cell line: normal-adjacent organoid sample D; technique: CellTiter-Glo; tested at: 0.1 µM; setting: replicate mean; baseline: DMSO
Compound	viability
O[C@]1(C(F)(F)F)CCCC[C@H]1Nc1ccc(F)cc1	105%
COc1cc(N[C@@H]2CCCC[C@]2(O)C(F)(F)F)ccc1F	114%
O=C(NCCCC1CCCCC1)c1ccc(CNC(=O)c2cnn(-c3ccccc3)c2C(F)(F)F)cc1	126%
CN1C(=O)[C@@H](N2CCc3cn(Cc4ccccc4)nc3C2=O)COc2ccccc21	124%

Series 2 — matrix: hydrocarbon/water
Structure (SMILES)	logD
CC(C)C[C@@H]1NC(=O)[C@H](Cc2ccc(O)cc2)NC(=O)[C@H]2CCCN2C(=O)[C@H](CC(C)C)NC(=O)[C@H](CC2CCCCC2)NC(=O)[C@@H](CC(C)C)NC1=O	1.04
CCC[C@@H]1NC(=O)[C@H](C)N(C)C(=O)[C@H](CC(C)C)NC(=O)Cn2cc(nn2)CN(C)C(=O)[C@H](CC(C)C)NC(=O)[C@H](C)N(C)C(=O)[C@H](CC)NC(=O)CN(CCC)C(=O)[C@H]2CCCN2C1=O	-1.65
CCN1CC(=O)N[C@@H](CC(C)C)C(=O)N2CCC[C@@H]2C(=O)N(C)[C@@H](CC(C)C)C(=O)N[C@@H](C)C(=O)N(CC2CCOCC2)CC(=O)N[C@@H](Cc2ccccc2)C(=O)N2CCC[C@@H]2C(=O)N(C)[C@@H](CC(C)C)C(=O)N[C@@H](C)C1=O	1.25
CCOC(=O)[C@@H]1CSCC(=O)N[C@H](CC)C(=O)N(C)[C@@H](C)C(=O)N[C@@H](CC(C)C)C(=O)N2CCC[C@@H]2C(=O)N(CC(C)C)CC(=O)N[C@@H](CC(C)C)C(=O)N(C)[C@H](C)C(=O)N[C@@H](CC(C)C)C(=O)N1C	1.44
CCN1CC(=O)N[C@@H](CC(C)C)C(=O)N2CCC[C@@H]2C(=O)N(C)[C@@H](C)C(=O)N[C@@H](CC(C)C)C(=O)N(C)[C@@H](C)C(=O)N[C@@H](CC(C)C)C(=O)N(C)Cc2cn(nn2)CC(=O)N[C@@H](CC(C)C)C1=O	-0.66

Series 3 — host: human; matrix: microsomes or S9; tested at: 2 µM; time: 0.5 h
Compound	remaining compound [%]
Cc1c(C(=O)Nc2cc(Cl)ccc2OCC2CCCO2)oc2c1C(=O)CC(C)(C)C2 (centres unmarked)	96.5
COc1cccc([C@@H]2CN(C(=O)C3CC(=O)Nc4ccccc43)C[C@]23CCCCC(=O)N3)c1 (some centres unmarked)	56
c1ccc(C2CCC3(CC2)Oc2ccccc2C2CC(c4ccncc4)=NN23)cc1 (centres unmarked)	56.1
O=C1CC(c2ccc3c(c2)OCO3)CC2=C1C(c1ccncc1)Nc1ccccc1N2 (centres unmarked)	65.1
COC(=O)c1sc2ncn(CC(C)=O)c(=O)c2c1C	21.5
COc1ccc(N(C)S(=O)(=O)c2cc3c(cc2Cl)Oc2ccccc2NC3=O)cc1	54.5

Series 4 — cell line: HaCaT; tested at: 100 µM; time: 18 h
Structure (SMILES)	viability [%]
CC(C)(C#N)c1cc(Cn2cncn2)cc(C(C)(C)C#N)c1	93.4
CC1(C)S[C@@H]2[C@H](NC(=O)[C@H](C(=O)O)c3ccsc3)C(=O)N2[C@H]1C(=O)O	98.8
C[C@H]1COc2c(C3(N)CC3)c(F)cc3c(=O)c(C(=O)O)cn1c23	112
CC[C@H](C)[C@H](N)C1=N[C@H](C(=O)N[C@@H](CC(C)C)C(=O)N[C@H](CCC(=O)O)C(=O)N[C@H](C(=O)N[C@H]2CCCCNC(=O)[C@H](CC(N)=O)NC(=O)[C@@H](CC(=O)O)NC(=O)[C@H](Cc3cnc[nH]3)NC(=O)[C@@H](Cc3ccccc3)NC(=O)[C@H]([C@@H](C)CC)NC(=O)[C@@H](CCCN)NC2=O)[C@@H](C)CC)CS1	107
CC(=O)c1ccc(O)c(C(=O)O)c1	119
Oc1ccc(OCc2ccccc2)cc1	72.7

Series 5 — effect on: enzyme activity; action: inhibitor; tested at: 0.5 µM; baseline: control
Structure (SMILES): COc1cc2ncnc(Nc3ccc(OCc4ccccc4)cc3)c2cc1OC
target	remaining activity [%]
PAK1 (Homo sapiens, UniProt Q13153)	93.2
Cyclin-dependent kinase 5, with p35 (CDK5, Homo sapiens, UniProt Q00535)	103
ERBB2 (Homo sapiens, UniProt P04626)	42.6
CLK1 (Homo sapiens, UniProt P49759)	111
Cyclin-dependent kinase 2, with cyclin E (CDK2, Homo sapiens, UniProt P24941)	96.7
JAK1 (Homo sapiens, UniProt P23458)	101
EPHB3 (Homo sapiens, UniProt P54753)	90
SIK2 (Homo sapiens, UniProt Q9H0K1)	73.7
SGK2 (Homo sapiens, UniProt Q9HBY8)	100
MELK (Homo sapiens, UniProt Q14680)	102
IGF1R (Homo sapiens, UniProt P08069)	102
RPS6KA3 (Homo sapiens, UniProt P51812)	103
RPS6KB2 (Homo sapiens, UniProt Q9UBS0)	108
PIM1 (Homo sapiens, UniProt P11309)	102
TEC (Homo sapiens, UniProt P42680)	106
PRKCZ (Homo sapiens, UniProt Q05513)	113
FES (Homo sapiens, UniProt P07332)	97
FLT1 (Homo sapiens, UniProt P17948)	96
PAK6 (Homo sapiens, UniProt Q9NQU5)	95.4
MUSK (Homo sapiens, UniProt O15146)	99.3
PRKCQ (Homo sapiens, UniProt Q04759)	102
ACVRL1 (Homo sapiens, UniProt P37023)	102
JAK2 (Homo sapiens, UniProt O60674)	94.3
CAMKK1 (Homo sapiens, UniProt Q8N5S9)	126
MAP3K20 (Homo sapiens, UniProt Q9NYL2)	96.2

Series 6 — SMILES: CCN(c1nc(N)c(C(=O)N=C(N)N)nc1Cl)C(C)C; effect on: β-arrestin recruitment; action: agonist; technique: PRESTO-Tango; tested at: 10 µM; baseline: untreated
target	fold over basal
Adhesion G protein-coupled receptor E5 (Homo sapiens, UniProt P48960)	0.49
G-protein coupled receptor 151 (GPR151, Homo sapiens, UniProt Q8TDV0)	0.73
SSTR4 (Homo sapiens, UniProt P31391)	1.44 fold
ADORA3 (Homo sapiens, UniProt P0DMS8)	1.03
MTNR1A (Homo sapiens, UniProt P48039)	1.07
HTR1F (Homo sapiens, UniProt P30939)	0.38

Other studies, line by line
SMILES	target	assay	measurement	result
C[C@@H]1CN(c2ccc(-c3cc(C(=O)NCCOCCOCCOCCOCCNC(=O)/C=C/c4[nH]cc(C(=O)N[C@@H](CC(N)=O)c5ccc(F)c(Cl)c5)c4-c4ccc(Cl)cc4F)ccc3F)cc2NC(=O)c2c[nH]c(=O)cc2C(F)(F)F)C[C@H](C)N1C	DDB1- and CUL4-associated factor 1 (DCAF1, Homo sapiens, UniProt Q9Y4B6)	SPR	dissociation rate constant	0.0091 s⁻¹

Excerpt of the above (series 2):
Structure (SMILES)	logD
CCC[C@@H]1NC(=O)[C@H](C)N(C)C(=O)[C@H](CC(C)C)NC(=O)Cn2cc(nn2)CN(C)C(=O)[C@H](CC(C)C)NC(=O)[C@H](C)N(C)C(=O)[C@H](CC)NC(=O)CN(CCC)C(=O)[C@H]2CCCN2C1=O	-1.65
CCN1CC(=O)N[C@@H](CC(C)C)C(=O)N2CCC[C@@H]2C(=O)N(C)[C@@H](CC(C)C)C(=O)N[C@@H](C)C(=O)N(CC2CCOCC2)CC(=O)N[C@@H](Cc2ccccc2)C(=O)N2CCC[C@@H]2C(=O)N(C)[C@@H](CC(C)C)C(=O)N[C@@H](C)C1=O	1.25
CCOC(=O)[C@@H]1CSCC(=O)N[C@H](CC)C(=O)N(C)[C@@H](C)C(=O)N[C@@H](CC(C)C)C(=O)N2CCC[C@@H]2C(=O)N(CC(C)C)CC(=O)N[C@@H](CC(C)C)C(=O)N(C)[C@H](C)C(=O)N[C@@H](CC(C)C)C(=O)N1C	1.44
